{"data": "Earlier results that unrelated publications cite", "note": "Each numbered part shows a few of the values that one paper quotes. Numbers after ± are the reported error."}
{"data": "Series 1", "organism": "SARS-CoV-2", "read-out": "cytopathic effect", "cell line": "Caco-2", "tested at": "10 µM"}
{"SMILES": "O=[N+]([O-])c1ccc(O)c2ncccc12", "inhibition [%]": 3.8}
{"SMILES": "O=C(/C=C/c1ccc2ccccc2n1)c1ccncc1", "inhibition [%]": 101}
{"SMILES": "CCN(CC)C(=S)[S-].O.O.O.[Na+]", "inhibition [%]": 12.6}
{"SMILES": "C[n+]1c2cc(N)ccc2cc2ccc(N)cc21.Nc1ccc2cc3ccc(N)cc3nc2c1", "inhibition [%]": 69.4}
{"SMILES": "CCC(=O)OCN1C(=O)C=CC1=O", "inhibition [%]": -3}
{"SMILES": "S=C(S)N1CCCC1", "inhibition [%]": -4.8}
{"SMILES": "O=C(O[C@@H]1Cc2c(O)cc(O)cc2O[C@@H]1c1cc(O)c(O)c(O)c1)c1cc(O)c(O)c(O)c1", "inhibition [%]": 6.3}
{"SMILES": "CSc1ccc(C(=O)c2[nH]c(=O)[nH]c2C)cc1", "inhibition [%]": 6.4}
{"SMILES": "CCCC[C@@H](C=O)NC(=O)[C@H](CC(C)C)NC(=O)OCc1ccccc1", "inhibition [%]": 9.5}
{"SMILES": "N#CSc1cc(SC#N)c(N)nc1N", "inhibition [%]": 3.2}
{"SMILES": "CC1=CC(=O)c2ccccc2C1=O", "inhibition [%]": 4.3}
{"SMILES": "Oc1cccc(-c2c3nc(c(-c4cccc(O)c4)c4ccc([nH]4)c(-c4cccc(O)c4)c4nc(c(-c5cccc(O)c5)c5ccc2[nH]5)CC4)C=C3)c1", "inhibition [%]": 85.9}
{"SMILES": "NC(CO)C(=O)NNCc1ccc(O)c(O)c1O (centres unmarked)", "inhibition [%]": -1.4}
{"SMILES": "O=C1C2CC=CCC2C(=O)N1SC(Cl)(Cl)Cl (centres unmarked)", "inhibition [%]": 8.2}
{"SMILES": "CC(=O)[O][Pt]([NH2])([Cl])([Cl])([NH]C1CCCCC1)[O]C(C)=O", "inhibition [%]": 13.3}
{"SMILES": "O=C1C=Cc2cc(Br)ccc2C1=O", "inhibition [%]": -4.8}
{"SMILES": "Cc1ccc(S(=O)(=O)c2ccc([N+](=O)[O-])o2)cc1", "inhibition [%]": -0.4}
{"SMILES": "Cc1ccc(S(=O)(=O)/C=C/C#N)cc1", "inhibition [%]": 0.234}
{"SMILES": "NC[C@@H]1O[C@H](C23CC4CC(CC(C4)C2)C3)Cc2c1ccc(O)c2O", "inhibition [%]": -7.2}
{"SMILES": "NC(=S)N/N=C/c1coc2ccccc2c1=O", "inhibition [%]": 11.9}
{"SMILES": "CC(=O)O/N=C1\\C(=O)N(Cc2cc(Cl)ccc2Cl)c2ccc(Cl)cc21", "inhibition [%]": -1.2}
{"SMILES": "C/N=c1/nc(-c2ccccc2)n(-c2ccccc2)s1", "inhibition [%]": 0.5}
{"SMILES": "CCN(CC)c1ccc(C(=C2C=CC(=[N+](CC)CC)C=C2)c2ccccc2)cc1", "inhibition [%]": 5.5}
{"SMILES": "[O-][S+](c1ccccc1)c1ccc2nnnn2n1 (centres unmarked)", "inhibition [%]": -2.4}
{"SMILES": "CO/N=C(\\C(=O)N[C@@H]1C(=O)N2C(C(=O)O)=C(CSC(=O)c3ccco3)CS[C@H]12)c1csc(N)n1.Cl", "inhibition [%]": 5.3}
{"data": "Series 2", "organism": "SARS-CoV-2", "read-out": "viral cytopathic effect", "cell line": "Vero E6", "tested at": "20 µM"}
{"Structure (SMILES)": "CCOc1ccc2nc3cc(N)ccc3c(N)c2c1", "inhibition": "-0.13%"}
{"Structure (SMILES)": "Cc1ccc(C(=O)Nc2ccc(S(=O)(=O)O)c3cc(S(=O)(=O)O)cc(S(=O)(=O)O)c23)cc1NC(=O)c1cccc(NC(=O)Nc2cccc(C(=O)Nc3cc(C(=O)Nc4ccc(S(=O)(=O)O)c5cc(S(=O)(=O)O)cc(S(=O)(=O)O)c45)ccc3C)c2)c1", "inhibition": "-0.02%"}
{"Structure (SMILES)": "O=C(O)c1ccccc1Nc1ccc(CCc2ccc(Cl)c(Cl)c2)cc1", "inhibition": "0.27%"}
{"Structure (SMILES)": "OCCOCCN1CCN(C(c2ccccc2)c2ccc(Cl)cc2)CC1 (centres unmarked)", "inhibition": "-0.13%"}
{"Structure (SMILES)": "C=C1c2cccc(O)c2C(=O)C2=C(O)[C@]3(O)C(=O)C(C(N)=O)=C(O)[C@@H](N(C)C)[C@@H]3[C@@H](O)[C@H]12", "inhibition": "0.22%"}
{"data": "Single results of other studies"}
{"SMILES": "CC(CN(C)C)CN1c2ccccc2CCc2ccccc21 (centres unmarked)", "target or system": "Marburg virus", "assay": "pseudovirus entry, HIV pseudotype luciferase reporter", "test system": "A549", "measurement": "IC50", "result": "10.9 µM"}
{"SMILES": "COc1c(O)cc(CCN)c2c1SSSSS2", "target or system": "L1210", "assay": "cell growth", "setting": "previously reported", "measurement": "IC50", "result": "3.1 µM"}
{"SMILES": "O=C(O)c1cc(O)c2ccc(Cl)cc2n1", "target or system": "strychnine-insensitive glycine site", "assay": "[3H]glycine binding", "measurement": "IC50", "result": "0.56 µM"}
{"SMILES": "CCCCCc1cc(O)c(C/C=C(\\C)CCC=C(C)C)c(O)c1C(=O)O", "target or system": "SARS-CoV-2", "assay": "viral replication", "setting": "literature value", "measurement": "EC50", "result": "23.3 µM"}
{"SMILES": "COc1cc(O)c(C(=O)[C@@H]2[C@H](CC=C(C)C)C(C)=CC[C@H]2c2ccccc2)c(O)c1", "target or system": "SARS-CoV-2", "assay": "viral replication", "test system": "Calu-3", "measurement": "IC50", "result": "2.04 µM"}
{"SMILES": "O=C(/C=C/c1ccc(O)c2oc(-c3ccc(O)c(O)c3)cc12)O[C@H](Cc1ccc(O)c(O)c1)C(=O)O", "target or system": "SARS-CoV-2", "assay": "viral replication", "measurement": "EC50", "result": "0.32 µM"}
{"SMILES": "C=C(C)[C@@H]1CCC(C)=C[C@H]1c1c(O)cc(CCCCC)c(C(=O)O)c1O", "target or system": "SARS-CoV-2", "assay": "viral replication", "setting": "literature value", "measurement": "EC50", "result": "21.5 µM"}
{"SMILES": "CC(C)C(=O)OC[C@H]1O[C@@H](n2ccc(NO)nc2=O)[C@H](O)[C@@H]1O", "assay": "hospitalization or death", "test system": "sample A patients", "setting": "dose not given, clinical trial", "measurement": "risk reduction", "result": "30%"}
{"SMILES": "COc1ccc2c(O[C@@H]3C[C@H]4C(=O)N[C@]5(C(=O)NS(=O)(=O)C6CC6)C[C@H]5/C=C\\CCCCN(C)C(=O)[C@@H]4C3)cc(-c3nc(C(C)C)cs3)nc2c1C", "target or system": "SARS-CoV-2", "assay": "viral replication", "test system": "293T-ACE2", "measurement": "EC50", "result": "2.3 µM"}
{"SMILES": "C[C@@H]1C[C@H]2[C@@H]3CCC4=CC(=O)C=C[C@]4(C)[C@@]3(F)[C@@H](O)C[C@]2(C)[C@@]1(O)C(=O)CO", "test system": "human, plasma", "setting": "intravenous, 4 mg", "measurement": "Cmax", "result": "> 100 ng/mL"}
{"SMILES": "Cc1cnc(C(=O)N[C@H]2CCCCC/C=C\\[C@@H]3C[C@@]3(C(=O)NS(=O)(=O)C3CC3)NC(=O)[C@@H]3C[C@@H](Oc4nc5ccccc5c5ccccc45)CN3C2=O)cn1", "target or system": "SARS-CoV-2", "assay": "viral replication", "test system": "Vero E6", "measurement": "IC50", "result": "6 µM"}
{"SMILES": "Nc1ncnc2c1ncn2[C@@H]1O[C@H](COP(=O)(O)OP(=O)(O)OP(=O)(O)O)[C@@H](O)[C@H]1O", "target or system": "Replicase polyprotein 1ab, nsp12 with nsp7/nsp8 (rep, Severe acute respiratory syndrome coronavirus 2, UniProt P0DTD1)", "assay": "substrate", "setting": "templating base U", "measurement": "kcat", "result": "240 ± 30 s⁻¹"}
{"SMILES": "CCC(CC)COC(=O)[C@H](C)N[P@](=O)(OC[C@H]1O[C@@](C#N)(c2ccc3c(N)ncnn23)[C@H](O)[C@@H]1O)Oc1ccccc1", "target or system": "SARS-CoV-2", "test system": "hospitalized sample A patients", "setting": "dose not given", "measurement": "time to recovery", "result": "11 days"}
{"SMILES": "COc1ccc(CNC(=O)C2CCN([C@H](C)c3cccc4ccccc34)CC2)cc1", "target or system": "SARS-CoV-1", "assay": "viral replication", "test system": "Vero E6", "measurement": "ID50", "result": "10 µM"}
{"SMILES": "N#Cc1ccccc1-c1cc(-c2ccccn2)cn(-c2ccccc2)c1=O", "target or system": "Replicase polyprotein 1ab, main protease (rep, Severe acute respiratory syndrome coronavirus 2, UniProt P0DTD1)", "measurement": "IC50", "result": "100 to 250 µM"}
{"SMILES": "CC(C)C(=O)OC[C@H]1O[C@@H](n2ccc(NO)nc2=O)[C@H](O)[C@@H]1O", "target or system": "SARS-CoV-2", "test system": "sample A patients", "setting": "dose not given", "measurement": "hospitalization and death reduction", "result": "50%"}
{"SMILES": "C=CC/C=C\\C=C/[C@H]1O[C@H]2C[C@H]3O[C@H]4CC[C@H]5O[C@H]6C[C@@]7(C)O[C@@]8(C)[C@@H](O)C[C@H](CCCO)O[C@@H]8C[C@@H]7O[C@@H]6C[C@@H]5O[C@]4(C)C[C@]3(C)O[C@@H]2C=C[C@]1(C)O", "target or system": "Kv2.1 V404T", "assay": "potassium current, inhibitor", "setting": "previously reported", "measurement": "IC50", "result": "0.504 ± 0.028 µM"}
{"SMILES": "Fc1ccc([C@@H]2CCNC[C@H]2COc2ccc3c(c2)OCO3)cc1", "target or system": "Ebola virus", "assay": "viral replication, eGFP reporter virus", "test system": "Vero E6", "measurement": "IC50", "result": "7.45 µM"}
{"SMILES": "Nc1nc2nc[nH]c2c(=S)[nH]1", "target or system": "SARS-CoV-2", "assay": "viral replication", "test system": "Calu-3", "measurement": "IC50", "result": "0.55 µM"}
{"SMILES": "O=NO", "target or system": "copper-containing nitrite reductase (Ralstonia pickettii, UniProt B2UHR8)", "assay": "substrate", "measurement": "Km", "result": "26 µM"}
